Measured values of several laboratories.
Each numbered part is a random draw from the data of one study; scales do not carry over between parts. Positions count from the first letter of the parent shown.

Series 1
Target: CCND3, cyclin fold, Cln2 fusion (human)
Technique: yeast growth competition, sequencing
Medium: yeast
Setting: weak parent motif
Relative to: not given
Direction: higher = stronger binding
Starting sequence: E2F8 docking peptide (human); FVPQRKLEVSTED; partner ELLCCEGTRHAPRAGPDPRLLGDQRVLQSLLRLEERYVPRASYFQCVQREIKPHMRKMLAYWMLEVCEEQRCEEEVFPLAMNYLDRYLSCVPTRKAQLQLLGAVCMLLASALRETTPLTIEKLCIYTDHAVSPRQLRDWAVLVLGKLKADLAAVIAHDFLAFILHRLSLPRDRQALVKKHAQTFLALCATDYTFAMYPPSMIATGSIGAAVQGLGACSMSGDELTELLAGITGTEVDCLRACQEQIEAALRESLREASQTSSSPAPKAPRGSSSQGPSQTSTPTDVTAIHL
| Substitution | normalised enrichment score |
| --- | --- |
| FVPQKKLEFSTED [R5K V9F] | -0.00477 |
| FVPQRKLEVATED [S10A] | 0.13 |
| FVPQRKLEVSTAD [E12A] | 0.0936 |
| FVAQRKLEVSTED [P3A] | 0.126 |
| FVPQRKLELSTED [V9L] | -0.446 |
| FVPQRKLAVSTED [E8A] | 0.117 |
| FVPQRKLEVSAED [T11A] | 0.116 |
| FVPQRKLEASTED [V9A] | 0.182 |

Series 2
Target: ABI1, truncated, D143A, DHFR fusion (Arabidopsis thaliana)
Technique: DHFR PCA, deep sequencing
Medium: yeast
Setting: methotrexate growth selection, single substitutions
With: (+)-ABA 58 µM
Relative to: wild-type fitted maximum
Direction: higher = stronger binding
Starting sequence: PYL1, truncated, DHFR fusion (Arabidopsis thaliana); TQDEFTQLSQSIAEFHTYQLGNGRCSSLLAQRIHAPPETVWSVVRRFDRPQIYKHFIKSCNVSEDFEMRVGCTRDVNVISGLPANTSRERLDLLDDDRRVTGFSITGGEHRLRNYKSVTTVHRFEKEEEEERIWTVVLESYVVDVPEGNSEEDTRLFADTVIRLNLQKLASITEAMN
| Substitution | relative binding score |
| --- | --- |
| F124V | 94.4% |
| V62C | 73.7% |
| T135M | -5.1% |
| L138Y | 53.2% |
| L8K | 49.3% |
| E38H | 65.4% |
| R155Y | 23.4% |
| Y53K | 4.45% |

Series 3
Target: RING finger protein unkempt homolog, zinc fingers 1-6, GST-SBP tag (UNK, Homo sapiens, UniProt Q9C0B0, residues 30-357)
Sequence of UniProt Q9C0B0 (30-357, looked up): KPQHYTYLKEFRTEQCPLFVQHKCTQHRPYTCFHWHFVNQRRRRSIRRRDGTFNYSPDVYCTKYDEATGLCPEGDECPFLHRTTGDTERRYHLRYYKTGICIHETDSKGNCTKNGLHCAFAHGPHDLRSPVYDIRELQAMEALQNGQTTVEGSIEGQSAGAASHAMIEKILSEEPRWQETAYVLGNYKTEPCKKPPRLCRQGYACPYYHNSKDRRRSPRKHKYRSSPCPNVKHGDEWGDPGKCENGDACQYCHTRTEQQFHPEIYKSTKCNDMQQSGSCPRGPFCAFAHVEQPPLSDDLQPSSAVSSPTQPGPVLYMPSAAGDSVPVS
Technique: RNA Bind-n-Seq
Form: RNA
Medium: in vitro
Concentration: not given
Setting: RNA with constant flanks, human and mouse sites, ends assumed
Relative to: input RNA pool
Direction: higher = stronger binding
All sequences stand within: GGGAGUUCUACAGUCCGACGAUC … CAACAGAGGAUUGAGCAUCA
| Sequence | bound/input enrichment [ratio] |
| --- | --- |
| UGGACAGAAAAAAUAAUGAAACAAACUGAAGUGUUAUUGCAGCCAAAUCCAAAUGCCAGGAUAGAAGAAUUUGUUUAUGAGAAACUGGAUAGAAAAGCUCCAAGUCGUAUAAACAACCCA | 0.455 |
| CAGCGCCGAGGCCGCGGUUUCCCCCUGGGCCUCCCCAGCAGCAGCCAUGGGCAUCAAAUUUUUAGAAGUUAUCAAACCAUUCUGUGCAGUUCUACCAGAAAUUCAGAAACCGGAAAGGAA | 1.59 |
| UAGUUUGUUGUUUAAAAUAAUGUAAUCAUCAAAAUGAUGCAUAUUGUUACACUACUAUUAACUAGGCUUCAGUAUAUCAGUGUUUAUUUCAUUGUGUUAAAUGUAUACUUGUAAAUAAAA | 0.325 |
| CUCAUGGCUGCAGAAACAGGAAGUGGAAAAACUGGUGCAUUUAGUAUUCCCGUUAUCCAGAUAGUGUAUGAAACUCUGAAAGACCAACAGGAAGGAAAGAAAGGGAAAACAACUAUUAAA | 0.676 |
| AGUAGGAAAAUUACUGUUUUGCAAGUGAAUGAAAAAUCACUUAUAAGGCAAUAUACAACCUUAGUAGAAUUGGAGCGACAACUUAGAAAAGAAAAUGAGAAGCAAAAGAAUGAAUUGUUG | 2.73 |
| UUGGCUCACCCUGAUGCUCCAAUGUCCCAGGUUUAUGGAGCACCACACCUACUGAGAUUAUUUGUAAGAAUUGGAGCAAUGUUGGCCUAUACGCCCCUUGAUGAGAAAAGCCUUGCAUUA | 0.149 |
| AAAGAAGAGAAAGAAGAUGAAAUUUCAUUAGAAGAUCUAAUUGAGAGAGAGCGUUCUGCCCUAGGUCCAAAUGUUACCAAAAUCACUCUAGAAUCUUUUCUUGCCUGGAAGAAAAGGAAA | 0.674 |
| UAAUUUUGGUCUGCUUAUUUUUAGAUAAAAUUGAAAGGAAUUGUAUAAAUCAAUUAACAUAUUAGCUGAGUUGUCCAACACAUGGUAUAAACGAAUUACAACAGUAAACUAUUACACAUU | 6.39 |

Mixed results
| Substance | target | test | system | conditions | scale | endpoint | result |
| --- | --- | --- | --- | --- | --- | --- | --- |
| PhoQ, residues 284 288 289 292 302 303 QWGLFV | PhoP, residues 12 14 15 18 19 LHATL (Escherichia coli, UniProt P23836) | Sort-seq, measured: YFP reporter | E. coli | PhoQ-PhoP variant library, with: 10 µM Mg2+ | relative to: high Mg2+ state, higher = stronger signaling | fold induction | 18 |
